Results of several laboratories.
Numbered parts are unrelated; each lists some results of a single study.

Series 1
Target: TAR DNA-binding protein 43, full length, His tag (TARDBP, Homo sapiens, UniProt Q13148, residues 1-414)
Technique: RNA Bind-n-Seq
Form: RNA
Medium: in vitro
Tested at: 20 nM
Setting: 6-mer, flanks averaged, single round
Added: 150 mM KCl
Baseline: input library
Direction: higher = stronger binding
`CGUUUU`: “6-mer enrichment (R)” 0.613.
`GCGCAG`: “6-mer enrichment (R)” 1.65.
For `UGAUUA`, “6-mer enrichment (R)” read 0.598.
For `GAGGAG`, “6-mer enrichment (R)” read 3.95.
`GGCGGC` — result for “6-mer enrichment (R)”: 3.44.
`GACGCU` — result for “6-mer enrichment (R)”: 0.819.
Under “6-mer enrichment (R)”, `GCUCGG` is recorded as 1.5.
`CCUGUC`: “6-mer enrichment (R)” 0.605.
`GCAGUA` — result for “6-mer enrichment (R)”: 0.889.
Under “6-mer enrichment (R)”, `ACGUGA` is recorded as 0.813.
Under “6-mer enrichment (R)”, `UGGAUG` is recorded as 1.46.
Under “6-mer enrichment (R)”, `UCUACG` is recorded as 0.626.
Under “6-mer enrichment (R)”, `ACGAUG` is recorded as 0.839.
For `UGCGUC`, “6-mer enrichment (R)” read 0.807.
For `GCCGUU`, “6-mer enrichment (R)” read 0.762.
`AAGCCG`: “6-mer enrichment (R)” 0.837.
`CUGGUA` — result for “6-mer enrichment (R)”: 0.76.
`UAUUAA`: “6-mer enrichment (R)” 0.618.
Under “6-mer enrichment (R)”, `CAUCCU` is recorded as 0.569.
`AGGAAG` — result for “6-mer enrichment (R)”: 1.72.
For `UAGGGG`, “6-mer enrichment (R)” read 3.83.
For `UCGGUG`, “6-mer enrichment (R)” read 1.24.
Under “6-mer enrichment (R)”, `UUACCA` is recorded as 0.591.
`GGUGAU`: “6-mer enrichment (R)” 1.37.
`CCUCCU`: “6-mer enrichment (R)” 0.575.

Series 2
Target: Centromere-binding protein 1, full length, N-terminal tag (CBF1, Saccharomyces cerevisiae, UniProt P17106, residues 1-351)
Chain of UniProt P17106 (whole entry, looked up): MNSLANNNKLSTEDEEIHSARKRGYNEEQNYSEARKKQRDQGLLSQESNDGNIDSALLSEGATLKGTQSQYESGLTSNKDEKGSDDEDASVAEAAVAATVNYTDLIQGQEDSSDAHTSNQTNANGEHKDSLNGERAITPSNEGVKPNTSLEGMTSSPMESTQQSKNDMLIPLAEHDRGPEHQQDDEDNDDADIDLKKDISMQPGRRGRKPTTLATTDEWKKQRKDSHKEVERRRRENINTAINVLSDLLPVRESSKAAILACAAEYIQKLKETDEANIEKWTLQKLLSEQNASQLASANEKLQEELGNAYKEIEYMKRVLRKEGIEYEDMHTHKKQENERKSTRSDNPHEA
Technique: protein-binding microarray
Form: double-stranded DNA, one strand shown
Medium: in vitro
Tested at: 0.8 µM
Setting: whole 60-bp probe, no competitor
Direction: higher = stronger binding
With `TGTACGAAGCTATGTGATCAGATTATAGTAGTTAGGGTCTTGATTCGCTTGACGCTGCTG` the fluorescence intensity was 576 a.u.
The fluorescence intensity of `GAACTATTGTCCTATCTGATGACACCTCAATATTAGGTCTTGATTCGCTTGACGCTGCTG` is reported as 563 a.u.
With `CTAATAAAGGGAACACACGTGAAAGTGAAGGACTTCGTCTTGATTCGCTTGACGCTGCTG` the fluorescence intensity was 1840 a.u.
For `GAAACGAATAGTCATGATGCAATGTACCCTCATTAGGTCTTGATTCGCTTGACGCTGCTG`, the fluorescence intensity was 545 a.u.
For `CTAAATTCTCGCAAACACGTCACAAGAAACAAATTCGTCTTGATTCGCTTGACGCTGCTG`, the fluorescence intensity was 772 a.u.
For `CTATCAAGCGCTTAATACAACACGTCGGCTTTCTTCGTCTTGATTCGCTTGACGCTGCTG`, the fluorescence intensity was 537 a.u.
For `GAACATTAGACTACACGTGCAGCATATACCAACTAGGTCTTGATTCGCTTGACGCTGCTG`, the fluorescence intensity was 8710 a.u.
`GAATCTGTTTCTGGTTGCGTGATTTTTCTTTAGTAGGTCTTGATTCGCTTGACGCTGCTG` gave a fluorescence intensity of 757 a.u.
The fluorescence intensity of `TGTACGAAGCTATGCATCACCGTTATAGTAGTTAGGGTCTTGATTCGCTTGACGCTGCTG` is reported as 511 a.u.
For `GAACGCTTGCGGGAGCACGGGAGAAGGAACAGATAGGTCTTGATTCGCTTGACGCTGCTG`, the fluorescence intensity was 621 a.u.
For `GAATCCAACTAGAGTCACGGTTTTTCAAAGTCTTAGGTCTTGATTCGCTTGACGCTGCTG`, the fluorescence intensity was 675 a.u.
The fluorescence intensity of `CTATTAGGATGAAGAGGTGACATATAATGTTTCTTCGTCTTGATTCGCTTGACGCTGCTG` is reported as 508 a.u.
For `GAATCACATCCACGTGACCAGTTTCCAATCGAATAGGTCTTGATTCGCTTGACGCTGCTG`, the fluorescence intensity was 18400 a.u.
The fluorescence intensity of `GAACTATACTAGCGTGGTGTGCATAATTATTAGTAGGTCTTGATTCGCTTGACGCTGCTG` is reported as 576 a.u.
The fluorescence intensity of `GAATTCTTTCTACAGGTGATTGTATGTGGGCTTTAGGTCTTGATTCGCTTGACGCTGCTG` is reported as 639 a.u.
With `CTAAAACGTAAGTGTCACCCTTCTTCAAGATACTTCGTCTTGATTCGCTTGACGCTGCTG` the fluorescence intensity was 539 a.u.
With `CCTAACTACTATATCCACGCAACATAGCTTCGTACAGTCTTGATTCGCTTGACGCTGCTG` the fluorescence intensity was 531 a.u.
The fluorescence intensity of `GAACTTTAAAATTCAAACGTGGCGTTCTTTTTTTAGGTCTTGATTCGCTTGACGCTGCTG` is reported as 520 a.u.
For `GAAAGAAGAAATAATCACGTTAGGCATCCAAGATAGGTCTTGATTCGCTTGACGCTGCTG`, the fluorescence intensity was 690 a.u.

Series 3
Target: Sal-like protein 4, full length isoform B (SALL4, Homo sapiens, UniProt Q9UJQ4-2, residues 1-616)
Technique: universal PBM
Form: double-stranded DNA, one strand shown
Medium: in vitro
Tested at: not given
Setting: 8-mer, flanks averaged, mean of replicates
Direction: higher = stronger binding
Construct (chain): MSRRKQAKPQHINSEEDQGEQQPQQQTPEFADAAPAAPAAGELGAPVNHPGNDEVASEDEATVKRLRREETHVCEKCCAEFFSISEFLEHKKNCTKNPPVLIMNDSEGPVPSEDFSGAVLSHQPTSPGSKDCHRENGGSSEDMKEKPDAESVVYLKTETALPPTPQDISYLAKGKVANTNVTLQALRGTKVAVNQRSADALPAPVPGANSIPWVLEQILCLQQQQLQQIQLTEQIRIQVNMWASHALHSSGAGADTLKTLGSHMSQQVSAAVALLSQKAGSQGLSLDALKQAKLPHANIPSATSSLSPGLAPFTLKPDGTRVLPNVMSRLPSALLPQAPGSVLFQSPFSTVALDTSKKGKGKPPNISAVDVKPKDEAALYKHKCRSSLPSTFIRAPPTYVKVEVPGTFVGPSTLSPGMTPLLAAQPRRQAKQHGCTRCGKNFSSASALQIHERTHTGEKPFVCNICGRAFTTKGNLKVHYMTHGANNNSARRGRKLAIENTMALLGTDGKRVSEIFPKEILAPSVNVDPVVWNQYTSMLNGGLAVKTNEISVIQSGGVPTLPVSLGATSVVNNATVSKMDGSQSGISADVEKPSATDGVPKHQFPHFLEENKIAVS
`CGCCCCTC` gave an E-score of -0.461.
The E-score of `GACTTCCA` is reported as -0.114.
`AGTCTCAC` gave an E-score of 0.0103.
The E-score of `CGGTAAAG` is reported as -0.0379.
`CGGGGGCC` has an E-score of -0.428.
With `CCTTTACC` the E-score was -0.102.
With `ACATGTTG` the E-score was 0.205.
`CTTGTTGC` has an E-score of 0.0315.
For `AGGTCTAT`, the E-score was 0.0743.
For `GCCTTGAC`, the E-score was -0.0909.
`CTACTGTC` gave an E-score of 0.0202.
The E-score of `ATACTATG` is reported as 0.227.
`TAGAAGCA` has an E-score of 0.0466.
With `CGTCAGCA` the E-score was -0.0763.
`ACCCTCCA` gave an E-score of -0.174.
With `CAACATAA` the E-score was 0.3.
`CTTCCGCA` has an E-score of -0.171.

Series 4
Target: Interferon regulatory factor 3, full length, phosphomimetic (IRF3, Homo sapiens, UniProt Q14653, residues 1-427, S386D/S396D/S398D/S402D/T404D/S405D)
Technique: protein-binding microarray
Form: double-stranded DNA, one strand shown
Medium: in vitro
Tested at: 2540 nM top
Setting: 60-bp whole probe
Added: salmon DNA 0.4 mg/ml
Baseline: random background probes
Direction: higher = stronger binding
Shared flanks, not repeated: GCCTAGCAC … GTCTTGATTCGCTTGACGCTGCTG
Target sequence (chain): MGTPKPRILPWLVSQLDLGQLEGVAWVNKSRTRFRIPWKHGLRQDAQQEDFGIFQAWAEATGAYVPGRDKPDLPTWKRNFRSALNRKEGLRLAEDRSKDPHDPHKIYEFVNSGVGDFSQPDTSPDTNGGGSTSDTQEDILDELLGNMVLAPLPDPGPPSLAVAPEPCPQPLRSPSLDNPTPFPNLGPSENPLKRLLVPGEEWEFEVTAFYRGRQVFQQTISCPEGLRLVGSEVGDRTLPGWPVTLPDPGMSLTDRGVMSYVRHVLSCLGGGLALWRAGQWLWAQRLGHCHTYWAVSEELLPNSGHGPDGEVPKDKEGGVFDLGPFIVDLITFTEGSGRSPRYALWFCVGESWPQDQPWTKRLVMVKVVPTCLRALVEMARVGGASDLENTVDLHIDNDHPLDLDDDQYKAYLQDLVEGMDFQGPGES
`TTAGGTTTGCTTATCCTTTAGTGCTAG`: “fitted relative affinity” 0.91 z-score.
Under “fitted relative affinity”, `TTAGGTTTCGGACTGGGATAGTGCTAG` is recorded as 4 z-score.
`TTAGGTCTCATTATCCTTTAGTGCTAG`: “fitted relative affinity” 2.05 z-score.
`GACGGTCTCCTTTTCCTTACGTGCTAG`: “fitted relative affinity” 4.96 z-score.
Under “fitted relative affinity”, `ATATATTCATATATATATGAGTGCTAG` is recorded as 1.08 z-score.
`TAAGGTTTCGGGTTTCGGTTAGTGCTA` — result for “fitted relative affinity”: 6.49 z-score.
`TGAGGTCTCGGTCTCGGTTAGTGCTAG` — result for “fitted relative affinity”: 0.641 z-score.
For `GACGGTTTCCTTTTCCTGGCGTGCTAG`, “fitted relative affinity” read 10.6 z-score.
`TTAGATCTCAGTCTCGATAAGTGCTAG` — result for “fitted relative affinity”: 0.594 z-score.
Under “fitted relative affinity”, `CTTAGCTTGGGTCTGTGCCTGTGCTAG` is recorded as -0.678 z-score.
`ATTAGTATGTTCACTATTTAAGTGCTA` — result for “fitted relative affinity”: 0.637 z-score.
For `TTAGATTCCAGTTTCGATTAGTGCTAG`, “fitted relative affinity” read 4.95 z-score.
For `TCAATTTTCTGAATGTCACTGTGCTAG`, “fitted relative affinity” read 1.41 z-score.
Under “fitted relative affinity”, `GAGGGACTGGGGTTTCGGGACGTGCTA` is recorded as 0.398 z-score.
Under “fitted relative affinity”, `TCATATATATTGTTAGTACTGTGCTAG` is recorded as 0.429 z-score.
`GACGATTTCGGGCTTCGAGACGTGCTA` — result for “fitted relative affinity”: 1.27 z-score.
`TTAGGTTTCCTATCCCTTTAGTGCTAG`: “fitted relative affinity” 6.21 z-score.

Series 5
Target: RNA binding protein fox-1 homolog 2, RRM domain, GST-SBP tag (RBFOX2, Homo sapiens, UniProt O43251-10, residues 100-194)
Technique: RNA Bind-n-Seq
Form: RNA
Medium: in vitro
Tested at: 365 nM
Setting: natural RNA segment, single round, ends assumed
Baseline: no-protein control
Direction: higher = stronger binding
`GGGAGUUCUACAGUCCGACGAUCUGUGCUCCCUGCCUUGCCUAGGAUGAAGCCUCCAGCGCUGCUCCCUGGCCCUGUUCCUGGCAUAUGGCAAUGUACCCCAGGCUCAGGGAUCUCCCUUCCUUGAGGAUGUUUGGAAUUCUCGGGUGCCAA`: “RBNS enrichment (R)” 0.474.
`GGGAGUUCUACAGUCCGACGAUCGCUGGGGUAGUCACCAGCUUACUGUGGGUACAGGGCUCUUAGCUUGUAUGUGUUCUCCCUUCCUUGAAUCUCUUGUAUGGCCCUAGAACUUUGGUCAGGUGUGUUUAUGGUGGAAUUCUCGGGUGCCAA`: “RBNS enrichment (R)” 1.57.
`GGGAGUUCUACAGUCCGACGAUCCUGCCCCACCUAGCCUGGGCAGCAGGGCUGCCAAGGUCAGAAUGGCCUGGCUAGGAGCCCUUCAGGCCUCUCUCUCCUCUGUCCACCCUUGGCCUGUCUCAUCCCUGUGGUGGAAUUCUCGGGUGCCAA`: “RBNS enrichment (R)” 0.362.
For `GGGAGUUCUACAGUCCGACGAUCGUCUGCCAGGGAGACAAGUACACACCUUGACUCUCAAGUUGGCAGCCCAGCCUGAAGUAGAGCUCUGACAUUAGGAGCUCUGCUUGCAAGUGUGUGAGUAUGUAUGCCUGUGGAAUUCUCGGGUGCCAA`, “RBNS enrichment (R)” read 0.491.
`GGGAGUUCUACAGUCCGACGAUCUCUGACUACUGUGCUAAGGUGUGUAUAAUGAACAUGGUAAUUCUAACCAGCUUUUUAAAAAUAUGUAGCGCUUGUCAUGAGAGGUACUGGGGAAAAGAAUGUGCAGUAGAUGGAAUUCUCGGGUGCCAA` — result for “RBNS enrichment (R)”: 3.51.
Under “RBNS enrichment (R)”, `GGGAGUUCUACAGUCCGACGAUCACUGUCUUGCUAAUGUUCUGAUCACUGUGCGCCCCCUCCCUCUUCAGAAGGACCCUGGGCCUCUUGAGUUGGCCCCUCUGAGUUCCCUCCCUUUGCCCAUUUCAAGGACAUGGAAUUCUCGGGUGCCAA` is recorded as 3.84.
For `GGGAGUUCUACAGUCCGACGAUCGAUCUCCUGCCUCACACACCUGUUUGUGACUUUCCCAGCAAGUAGCUCUGUUACCCUGAGAACACCAGAGCUCCCCUUGUCUCCCUCUCUCUCUCAUCCAGGGUCCCUGCUGGAAUUCUCGGGUGCCAA`, “RBNS enrichment (R)” read 0.852.
Under “RBNS enrichment (R)”, `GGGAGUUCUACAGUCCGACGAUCCACAAACAUCAGCAAAACUUUGCCUCCCAAGAUAUAAAACCUAGAAACAGACCUGUGUUCCACCCUCUGCAAGAUAAUGUCCAACUACCAAGGUGAUGUUAAGGGCAUAGUGGAAUUCUCGGGUGCCAA` is recorded as 0.376.
